Experimental data collected from several papers.
Compare with care: the assays were run in different laboratories.

| Structure (SMILES) | cell line | observed | method | time | reference | selectivity ratio |
| --- | --- | --- | --- | --- | --- | --- |
| CS(=O)(=O)c1sc(NC(=O)Nc2ccc(Cl)cc2)c2c1C=CCC2 | NUPR1 wild-type PDAC cells | cell viability |  |  | wild-type over NUPR1 knock-out | 2 to 3 |
| N=C(N/N=C/c1ccc2ccc3cccc4ccc1c2c34)N/N=C/c1ccc2ccc3cccc4ccc1c2c34 | PANC-1 |  | crystal violet | 72 h | IC50 hTERT-HPNE over IC50 PANC-1 | 1.2 |
| CCC(C(=O)O)C1CCC(C)C(C(C)C(O)C(C)C(=O)C(CC)C2OC3(C=CC(NCc4cn(CCOCCOCCOC)nn4)C4(CCC(C)(C5CCC(O)(CC)C(C)O5)O4)O3)C(C)CC2C)O1 (centres unmarked) | HMLER | cell proliferation |  |  | IC50 CD24high/CD44low over IC50 CD24low/CD44high | 2.3 |
| [Cl][Au]1[P](c2ccccc2)(c2ccccc2)C[P](c2ccccc2)(c2ccccc2)[Au]([Cl])[P](c2ccccc2)(c2ccccc2)C[P]1(c1ccccc1)c1ccccc1 | L929 and HCT-116 |  | trypan blue exclusion |  | IC50 L929 over IC50 HCT-116 | 1.3 |
| Cc1cnc(Nc2cc(C)c(C)c(C)c2)nc1Nc1ccc2oc(=O)[nH]c2c1 | human CD3+ T and CD56+ NK cells | IL-12-induced STAT4 phosphorylation |  |  | IC50 non-JAK1 over JAK1 pathways | 23.5 fold |
| N=C(N/N=C/c1cncnc1)N/N=C/c1cncnc1 | PANC-1 |  | crystal violet | 72 h | IC50 hTERT-HPNE over IC50 PANC-1 | 3.5 |
| Cc1cnc2c(ccc3c(C)c(C)cnc32)c1C.O=C([O-])Cc1ccccc1Nc1c(Cl)cccc1Cl.O=C([O-])Cc1ccccc1Nc1c(Cl)cccc1Cl.[Cu+2] | HMLER |  | MTT |  | HMLER over HMLER-shEcad | 9 fold |
| CCC(C(=O)O)C1CCC(C)C(C(C)C(O)C(C)C(=O)C(CC)C2OC3(C=CC(NCc4cn(CCCO)nn4)C4(CCC(C)(C5CCC(O)(CC)C(C)O5)O4)O3)C(C)CC2C)O1 (centres unmarked) | HMLER | cell proliferation |  |  | IC50 CD24high/CD44low over IC50 CD24low/CD44high | 2.7 |
| N=C(N/N=C/c1cc2ccccc2[nH]1)N/N=C/c1cc2ccccc2[nH]1 | PANC-1 |  | crystal violet | 72 h | IC50 IMR-90 over IC50 PANC-1 | 0.8 |
| CCC(C(=O)O)C1CCC(C)C(C(C)C(O)C(C)C(=O)C(CC)C2OC3(C=CC(NCc4cn(C56CC7CC(CC(C7)C5)C6)nn4)C4(CCC(C)(C5CCC(O)(CC)C(C)O5)O4)O3)C(C)CC2C)O1 (centres unmarked) | HMLER | cell proliferation |  |  | IC50 CD24high/CD44low over IC50 CD24low/CD44high | 15 |
| C#CCCCC(O)/C=C/C(=O)NC1(c2ccc(-c3nc4ccn5c(=O)[nH]nc5c4cc3-c3ccccc3)cc2)CCC1 (centres unmarked) | MDA-MB-468, KIFC1 or Grsf1 knockdown |  |  |  | EC50 cpd over EC50 MK-2206 | increased |

Some of these lines once more:
| Structure (SMILES) | cell line | observed | method | time | reference | selectivity ratio |
| --- | --- | --- | --- | --- | --- | --- |
| N=C(N/N=C/c1cc2ccccc2[nH]1)N/N=C/c1cc2ccccc2[nH]1 | PANC-1 |  | crystal violet | 72 h | IC50 IMR-90 over IC50 PANC-1 | 0.8 |
| CCC(C(=O)O)C1CCC(C)C(C(C)C(O)C(C)C(=O)C(CC)C2OC3(C=CC(NCc4cn(CCOCCOCCOC)nn4)C4(CCC(C)(C5CCC(O)(CC)C(C)O5)O4)O3)C(C)CC2C)O1 (centres unmarked) | HMLER | cell proliferation |  |  | IC50 CD24high/CD44low over IC50 CD24low/CD44high | 2.3 |
